Experimental data pooled from the literature.
Parts stem from different laboratories: compare values within a part only.

Sample 1
Target: Sal-like protein 4, full length isoform B (SALL4, Homo sapiens, UniProt Q9UJQ4-2, residues 1-616)
Technique: universal PBM
Form: double-stranded DNA, one strand shown
Sample: in vitro
Concentration: not given
Setting: 8-mer, flanks averaged, mean of replicates
Reading: higher = stronger binding
`CGCTGCGC` has an E-score of -0.309.
For `TAGGAGCA`, the E-score was -0.021.
`CTTCATTC` has an E-score of 0.0166.
`ATGCCAGA` gave an E-score of -0.0476.
With `AAGGTGCT` the E-score was -0.1.
`CATGCTAA` has an E-score of 0.126.
The E-score of `CAATTAGC` is reported as 0.124.
With `AACTGTCG` the E-score was 0.00305.
`GCACTACA` has an E-score of 0.0169.
`GGTGTGTA` gave an E-score of 0.0285.
For `AAAAGTAT`, the E-score was 0.289.
The E-score of `TCCCAAGA` is reported as -0.0387.
The E-score of `CGGTTAAG` is reported as 0.0678.
The E-score of `ACTGTCGA` is reported as -0.00455.
With `GCTACTAA` the E-score was 0.064.
`CCATGCAC` gave an E-score of -0.105.
The E-score of `AGAGGCCA` is reported as -0.162.
For `GAGTCAGC`, the E-score was -0.218.
The E-score of `CCGTGAGC` is reported as -0.316.
With `GACGCAAC` the E-score was -0.175.
`CCCCAGAC` has an E-score of -0.194.
The E-score of `GGTCTCAC` is reported as -0.0416.
`ACGGGGAG` gave an E-score of -0.395.
`CGGAGTTC` gave an E-score of -0.168.
`GCCACCTA` has an E-score of -0.193.

Sample 2
Target: Transcription factor Sp1 (SP1, Homo sapiens, UniProt P08047, residues 1-785, full length assumed)
Sequence of UniProt P08047 (whole entry, looked up): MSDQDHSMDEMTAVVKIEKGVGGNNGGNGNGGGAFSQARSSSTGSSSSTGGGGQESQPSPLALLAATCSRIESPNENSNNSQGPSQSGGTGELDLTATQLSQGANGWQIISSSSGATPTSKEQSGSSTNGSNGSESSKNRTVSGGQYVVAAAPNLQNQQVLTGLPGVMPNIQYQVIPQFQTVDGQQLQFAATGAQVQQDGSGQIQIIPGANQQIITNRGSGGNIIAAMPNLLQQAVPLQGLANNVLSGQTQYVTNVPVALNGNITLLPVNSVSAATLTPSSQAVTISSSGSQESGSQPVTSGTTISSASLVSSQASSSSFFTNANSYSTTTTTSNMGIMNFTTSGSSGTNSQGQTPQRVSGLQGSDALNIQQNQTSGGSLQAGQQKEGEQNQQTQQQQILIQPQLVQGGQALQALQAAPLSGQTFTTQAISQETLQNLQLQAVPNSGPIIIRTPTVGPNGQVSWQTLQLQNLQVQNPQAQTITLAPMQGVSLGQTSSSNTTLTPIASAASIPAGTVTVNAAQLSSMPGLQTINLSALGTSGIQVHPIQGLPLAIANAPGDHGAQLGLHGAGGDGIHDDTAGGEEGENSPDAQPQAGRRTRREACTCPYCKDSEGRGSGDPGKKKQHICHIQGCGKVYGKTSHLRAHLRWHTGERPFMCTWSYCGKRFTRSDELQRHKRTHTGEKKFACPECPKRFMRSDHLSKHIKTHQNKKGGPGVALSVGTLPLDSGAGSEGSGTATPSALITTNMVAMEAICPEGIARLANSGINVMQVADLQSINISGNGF
Technique: protein-binding microarray
Form: double-stranded DNA, one strand shown
Sample: in vitro
Concentration: not given
Setting: k-mer, scored over probes, only values ≥0.25
Reading: higher = stronger binding
For `CAACGCCC`, the E-score was 0.331.
The E-score of `GCATAGTA` is reported as 0.275.
For `AGGGGTTG`, the E-score was 0.373.
The E-score of `ACAGGGTA` is reported as 0.265.
The E-score of `CGCCACCC` is reported as 0.295.
For `GTAACACA`, the E-score was 0.305.
`AGGAGGCG` has an E-score of 0.285.
`CACTCCCA` has an E-score of 0.362.
`GGGGTAGA` has an E-score of 0.295.
`ATGTGGGG` gave an E-score of 0.291.
The E-score of `TACACCCA` is reported as 0.31.
With `AATGTGGG` the E-score was 0.36.
`CAACTCCC` has an E-score of 0.259.
`CAACAGGG` has an E-score of 0.252.
The E-score of `AGGGGAGG` is reported as 0.468.
The E-score of `AGGAAACG` is reported as 0.265.
`ATGTTTAC` has an E-score of 0.26.
`ACGCCCCG` gave an E-score of 0.332.
The E-score of `AGGGTATA` is reported as 0.263.
`ACAGACAA` has an E-score of 0.276.
For `CCGCCCGC`, the E-score was 0.302.
`GGGTAATA` gave an E-score of 0.273.
The E-score of `TACAACAA` is reported as 0.271.
With `GCCCACCC` the E-score was 0.47.

Sample 3
Target: Runt-related transcription factor 1, full length (RUNX1, Homo sapiens, UniProt Q01196-8, residues 1-480)
Technique: protein-binding microarray
Form: hairpin DNA
Sample: in vitro
Concentration: not given
Setting: whole hairpin DNA, median over replicate spots
Relative to: not given
Reading: higher = stronger binding
For `GAGGCCTGTTGCGGTTGGCCTCCTGGCCAACCGCAACAGGCCTCACACTC (5mC at 12 32)`, the median fluorescence was 1840 a.u.
`CTCAGTTCTGTGGGTTGGACTCCTGTCCAACCCACAGAACTGAGACACTC` has a median fluorescence of 2420 a.u.
The median fluorescence of `CAGGCCTGTCGCGGTTGGCCTCCTGGCCAACCGCGACAGGCCTGACACTC (5mC at 1)` is reported as 2590 a.u.
`CTCAGTTGTGTGGGCTGGACTCCTGTCCAGCCCACACAACTGAGACACTC (5mC at 37)` gave a median fluorescence of 2040 a.u.
`GAGGCCCGTTGCGGTTGGCCTCCTGGCCAACCGCAACGGGCCTCACACTC (5mC at 37)` has a median fluorescence of 6190 a.u.
`GAGGCCTGGTGTGGTTGGCCTCCTGGCCAACCACACCAGGCCTCACACTC (5mC at 36)` gave a median fluorescence of 2380 a.u.
For `GAGGCCTGTTGCGGTTGGCCTCCTGGCCAACCGCAACAGGCCTCACACTC (5mC at 32)`, the median fluorescence was 2000 a.u.
`GAGGCGTGTCGCGGTTGGCCTCCTGGCCAACCGCGACACGCCTCACACTC (5mC at 39)` has a median fluorescence of 3070 a.u.
For `GAGGCCTGTCGCGGTTGGCCTCCTGGCCAACCGCGACAGGCCTCACACTC (5mC at 10 34)`, the median fluorescence was 5200 a.u.
The median fluorescence of `CTCAGGTCTGTGGGCTGGACTCCTGTCCAGCCCACAGACCTGAGACACTC (5mC at 39)` is reported as 1970 a.u.

Sample 4
Target: RNA binding protein fox-1 homolog 2, RRM domain, GST-SBP tag (RBFOX2, Homo sapiens, UniProt O43251-10, residues 100-194)
Technique: RNA Bind-n-Seq
Form: RNA
Sample: in vitro
Concentration: 365 nM
Setting: natural RNA segment, single round, ends assumed
Relative to: no-protein control
Reading: higher = stronger binding
All sequences stand within: GGGAGUUCUACAGUCCGACGAUC … UGGAAUUCUCGGGUGCCAA
Residues (chain): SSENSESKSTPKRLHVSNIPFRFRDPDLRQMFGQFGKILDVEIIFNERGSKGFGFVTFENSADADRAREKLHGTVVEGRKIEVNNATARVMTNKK
For `AGUUUGGCAUUUUUUGUCGUUUGUGCACAUAACUUGGUGUUAUCCUUAUGUCAUCAGAUUCCUCCUAGGGGAGAGUUUUUGUUUUAAUUACAAAAUUAAAUUCUACAUUG`, “RBNS enrichment (R)” read 0.612.
Under “RBNS enrichment (R)”, `UUGAAGUUAUAUAUAUAUAAAACAAGUGUCUAUUUCUAGCUGAAAGAGUUUACCUCUUCUAGACAUUUAUGCCCAAUGGUGUCACACAUGAUCAUUUGCUCCUGCUCUAA` is recorded as 0.503.
`UGUGGCCAUAUGAACUGACUAGAUGGCUAAUAUGGACACUUUGGGUAUUUCUAAUGCCUGUUCAGGGCUGGUUUUCUGCAUGCACGGGUAUACACAUAAUGCAGUGCCAU`: “RBNS enrichment (R)” 1.97.
Under “RBNS enrichment (R)”, `ACACGAACAGCCUGAGAAGUCACUUUGGAACUAAAUUGCCUCGAUUUAUUUUGUGUAAGUAAGGGUUUGACCUAAAAAGAGCUCACGUGCACAUUAGCAAGUGUCCUCAU` is recorded as 0.296.
`GUUUCCCCUCUUUGGUUCUCAAAUAGCAUAGUUUAAUAACGAGUCAGACCGUAUUACAACAAAAACAAACGUCCCUUUCGUUCCUUGUGAGAUUUUCAUCCAAAGCCACA`: “RBNS enrichment (R)” 0.44.
`CAGCUGUCAUCACUGACGUAUGCACAAAACCAGACCGUUGAUCCCUGGUAUUCCAAGUUGAGUAUGGGUUGAACUGGAAAAUUCCCUGAGGCAUAACUUGUUAGCCAAUU` — result for “RBNS enrichment (R)”: 0.302.
For `GGGCCAGGCCCAAGGUCCCCUUGCUGUGUGCAGCCCAGGGACUUGGUACCAUGCAUCCCAGCUGCUCUAGUCAUGGCUAAAAGGGGCCAAGAUACAGCUCAGGCCUUGGC`, “RBNS enrichment (R)” read 0.376.
`UUAGAAAUGUAAGUUUUAAGGAUGGCCUUGUUGCCUUCUAUCAAGUUCUCUGGGACUUUGUAAUUUUGAUUACUACUAUUGAUACAUGGUUAUGGUCAGAAGGCCUCUUC`: “RBNS enrichment (R)” 0.254.
`UAAUGAUGAAUAUAAAAAUACCUGUCAUCCCCAGAUCAUUUAAAAGUUAACUAAAGUGAGAAUGAAAAAACAAAAUUCCAAGACACUUUUUAAAAGAAUGUCUGCCCUCA` — result for “RBNS enrichment (R)”: 0.433.
`UCUAGAGUGAGUCCCAGUUACAUCAAACAGUGACUUCCAGUUAUUCCCCAGUAAGUCUGAGUGGUUCCUUCAAGCUGGGUGUCUUUCCAGCCUUUGCCAGUCUAGCCCCA` — result for “RBNS enrichment (R)”: 0.256.
`GUUUGGCUCAAGAGCCUUUAUUUGGCCUGUUUGCCUUAAUUCUAUUACAUAGCAUACCUGUAUUUCAGUUAAAAACCAGACCCUAUGGUGUUGGGUAGACACUGACAGUU`: “RBNS enrichment (R)” 0.717.
For `ACCUCACAUUUCUAAAAGACCUCCUUCCUCAAGAGACAAAUGAAGGCAAAAUAAUCACACUCAGCAAACAGGAGAUGUUCUGCUCAGAUAUGAAUUUUCAAUGCAGCAAA`, “RBNS enrichment (R)” read 0.394.

Sample 5
Target: Prothrombin, mature alpha-thrombin (F2, Homo sapiens, UniProt P00734)
Technique: aptamer microarray, sandwich
Form: DNA with 2'F-ANA
Sample: in vitro
Concentration: 200 nM
Setting: whole 15-mer aptamer, many near background
Together with: Cy3 exosite-II aptamer, 400 nM
Reading: higher = stronger binding
Sequence: GGTTGGTGTGGTTGG
`2'F-ANA at 1 3 9 10 11 14`: “mean fluorescence intensity” 56.7 a.u.
`2'F-ANA at 2 7 11 12` — result for “mean fluorescence intensity”: 720 a.u.
`2'F-ANA at 2 4 5 10 12 13 15` — result for “mean fluorescence intensity”: 48.2 a.u.
`2'F-ANA at 1 5 7 9 11 12 14 15` — result for “mean fluorescence intensity”: 46.7 a.u.
Under “mean fluorescence intensity”, `2'F-ANA at 1 3 5 6 7 8 11 13` is recorded as 52.7 a.u.
Under “mean fluorescence intensity”, `2'F-ANA at 1 6 13 14 15` is recorded as 76.3 a.u.
`2'F-ANA at 2 3 6 8 9 10 12 15` — result for “mean fluorescence intensity”: 401 a.u.
`2'F-ANA at 1 8 9 10 14` — result for “mean fluorescence intensity”: 62.9 a.u.
`2'F-ANA at 1 2 3 7 9 10 11 12` — result for “mean fluorescence intensity”: 84.7 a.u.
Under “mean fluorescence intensity”, `2'F-ANA at 1 3 5 6 7 8 10 11 13 14 15` is recorded as 47.9 a.u.
`2'F-ANA at 1 3 5 6 7 12 15`: “mean fluorescence intensity” 129 a.u.
Under “mean fluorescence intensity”, `2'F-ANA at 1 2 3 7 8 13 14 15` is recorded as 83.6 a.u.
`2'F-ANA at 1 3 4 7 9 13 15`: “mean fluorescence intensity” 127 a.u.
Under “mean fluorescence intensity”, `2'F-ANA at 1 2 3 5 11 12 14` is recorded as 66.3 a.u.
Under “mean fluorescence intensity”, `2'F-ANA at 2 3 6 8 10 13` is recorded as 372 a.u.
`2'F-ANA at 1 5 6 10 11 12 13 14`: “mean fluorescence intensity” 46.3 a.u.
`2'F-ANA at 3 4 6 8 10 11 12 13 14` — result for “mean fluorescence intensity”: 144 a.u.
`2'F-ANA at 1 6 8 10 11 13 14`: “mean fluorescence intensity” 49 a.u.
For `2'F-ANA at 1 3 4 6 8 13 14`, “mean fluorescence intensity” read 69.2 a.u.
`2'F-ANA at 3 4 5 10 11 12 13` — result for “mean fluorescence intensity”: 55.8 a.u.
For `2'F-ANA at 1 4 5 6 7 10 11 13`, “mean fluorescence intensity” read 91.5 a.u.
For `2'F-ANA at 1 4 5 6 7 9 10 12 14`, “mean fluorescence intensity” read 45.1 a.u.
`2'F-ANA at 1 2 4 5 7 8 9 11 15`: “mean fluorescence intensity” 66.7 a.u.
For `2'F-ANA at 1 3 4 8 9 10 12 14 15`, “mean fluorescence intensity” read 51.6 a.u.
For `2'F-ANA at 1 3 6 8 10 12 13 14`, “mean fluorescence intensity” read 63.7 a.u.

For quick reference, copied from above (sample 5):
For `2'F-ANA at 1 3 4 6 8 13 14`, “mean fluorescence intensity” read 69.2 a.u.
`2'F-ANA at 1 5 6 10 11 12 13 14`: “mean fluorescence intensity” 46.3 a.u.
`2'F-ANA at 1 3 4 7 9 13 15`: “mean fluorescence intensity” 127 a.u.
`2'F-ANA at 2 7 11 12` — result for “mean fluorescence intensity”: 720 a.u.
`2'F-ANA at 2 4 5 10 12 13 15` — result for “mean fluorescence intensity”: 48.2 a.u.
`2'F-ANA at 1 3 5 6 7 12 15`: “mean fluorescence intensity” 129 a.u.
Under “mean fluorescence intensity”, `2'F-ANA at 2 3 6 8 10 13` is recorded as 372 a.u.
For `2'F-ANA at 1 3 6 8 10 12 13 14`, “mean fluorescence intensity” read 63.7 a.u.
`2'F-ANA at 1 2 3 7 9 10 11 12` — result for “mean fluorescence intensity”: 84.7 a.u.
`2'F-ANA at 3 4 5 10 11 12 13` — result for “mean fluorescence intensity”: 55.8 a.u.
